Measurements gathered from unrelated publications.
Parts stem from different laboratories: compare values within a part only.
UniProt Q02763, sequence (whole entry, looked up): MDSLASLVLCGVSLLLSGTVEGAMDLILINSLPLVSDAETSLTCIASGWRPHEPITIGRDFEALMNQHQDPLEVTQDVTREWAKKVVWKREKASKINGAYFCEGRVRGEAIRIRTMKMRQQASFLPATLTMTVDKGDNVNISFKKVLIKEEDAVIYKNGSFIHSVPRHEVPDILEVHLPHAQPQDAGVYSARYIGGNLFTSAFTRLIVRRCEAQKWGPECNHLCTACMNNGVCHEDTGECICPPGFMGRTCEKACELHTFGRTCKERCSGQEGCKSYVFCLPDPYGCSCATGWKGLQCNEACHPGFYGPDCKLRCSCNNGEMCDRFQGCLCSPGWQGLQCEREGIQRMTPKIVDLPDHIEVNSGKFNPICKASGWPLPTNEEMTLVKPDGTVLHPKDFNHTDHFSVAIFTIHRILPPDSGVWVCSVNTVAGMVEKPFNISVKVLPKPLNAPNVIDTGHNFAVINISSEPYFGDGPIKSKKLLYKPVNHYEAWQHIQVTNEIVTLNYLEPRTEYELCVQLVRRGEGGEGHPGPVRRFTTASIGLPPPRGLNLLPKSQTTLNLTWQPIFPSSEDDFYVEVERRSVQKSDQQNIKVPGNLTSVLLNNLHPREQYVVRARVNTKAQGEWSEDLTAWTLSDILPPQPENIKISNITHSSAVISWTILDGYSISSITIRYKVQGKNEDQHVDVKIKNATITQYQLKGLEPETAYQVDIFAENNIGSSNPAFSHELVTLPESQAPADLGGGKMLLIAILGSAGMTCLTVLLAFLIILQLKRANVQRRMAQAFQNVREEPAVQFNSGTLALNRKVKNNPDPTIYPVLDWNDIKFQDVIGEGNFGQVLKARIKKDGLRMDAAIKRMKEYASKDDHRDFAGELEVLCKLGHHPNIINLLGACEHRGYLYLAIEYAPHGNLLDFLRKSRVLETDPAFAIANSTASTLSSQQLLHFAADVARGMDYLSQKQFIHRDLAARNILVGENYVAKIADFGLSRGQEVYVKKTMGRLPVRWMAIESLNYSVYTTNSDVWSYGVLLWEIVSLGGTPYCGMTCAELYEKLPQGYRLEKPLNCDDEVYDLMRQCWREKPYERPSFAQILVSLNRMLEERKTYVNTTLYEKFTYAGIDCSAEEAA
UniProt P45985, sequence (whole entry, looked up): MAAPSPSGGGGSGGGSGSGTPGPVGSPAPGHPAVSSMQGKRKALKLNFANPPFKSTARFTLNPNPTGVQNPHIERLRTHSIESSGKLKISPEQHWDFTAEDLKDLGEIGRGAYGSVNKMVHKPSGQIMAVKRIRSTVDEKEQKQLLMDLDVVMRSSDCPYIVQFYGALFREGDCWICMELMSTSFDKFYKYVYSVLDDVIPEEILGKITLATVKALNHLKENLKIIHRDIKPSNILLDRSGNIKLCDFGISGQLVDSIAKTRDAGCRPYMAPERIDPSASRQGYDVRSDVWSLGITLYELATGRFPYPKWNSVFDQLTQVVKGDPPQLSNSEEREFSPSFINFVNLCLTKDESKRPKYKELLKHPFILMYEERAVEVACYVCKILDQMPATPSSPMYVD
UniProt P21802, sequence (whole entry, looked up): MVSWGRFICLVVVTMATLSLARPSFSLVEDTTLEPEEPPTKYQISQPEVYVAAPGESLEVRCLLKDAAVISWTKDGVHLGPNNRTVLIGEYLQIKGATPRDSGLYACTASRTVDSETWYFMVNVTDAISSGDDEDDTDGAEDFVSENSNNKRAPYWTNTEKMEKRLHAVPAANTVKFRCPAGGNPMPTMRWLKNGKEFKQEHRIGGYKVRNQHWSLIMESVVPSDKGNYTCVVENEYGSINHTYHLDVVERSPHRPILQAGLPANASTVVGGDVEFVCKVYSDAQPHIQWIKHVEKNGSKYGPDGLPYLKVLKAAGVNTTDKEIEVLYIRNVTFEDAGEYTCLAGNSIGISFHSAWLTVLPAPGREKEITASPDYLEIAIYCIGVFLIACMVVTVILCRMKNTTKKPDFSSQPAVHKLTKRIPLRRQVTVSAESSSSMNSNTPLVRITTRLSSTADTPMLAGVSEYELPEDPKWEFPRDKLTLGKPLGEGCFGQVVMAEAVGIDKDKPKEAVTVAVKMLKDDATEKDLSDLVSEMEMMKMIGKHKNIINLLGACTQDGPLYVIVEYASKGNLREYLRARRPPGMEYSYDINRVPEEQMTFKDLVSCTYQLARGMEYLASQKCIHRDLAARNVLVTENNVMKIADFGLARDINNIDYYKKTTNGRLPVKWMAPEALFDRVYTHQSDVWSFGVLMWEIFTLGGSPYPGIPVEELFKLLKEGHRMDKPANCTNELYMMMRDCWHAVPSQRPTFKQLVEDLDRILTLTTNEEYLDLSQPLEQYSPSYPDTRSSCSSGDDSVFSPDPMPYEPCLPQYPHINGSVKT
UniProt O00506, sequence (whole entry, looked up): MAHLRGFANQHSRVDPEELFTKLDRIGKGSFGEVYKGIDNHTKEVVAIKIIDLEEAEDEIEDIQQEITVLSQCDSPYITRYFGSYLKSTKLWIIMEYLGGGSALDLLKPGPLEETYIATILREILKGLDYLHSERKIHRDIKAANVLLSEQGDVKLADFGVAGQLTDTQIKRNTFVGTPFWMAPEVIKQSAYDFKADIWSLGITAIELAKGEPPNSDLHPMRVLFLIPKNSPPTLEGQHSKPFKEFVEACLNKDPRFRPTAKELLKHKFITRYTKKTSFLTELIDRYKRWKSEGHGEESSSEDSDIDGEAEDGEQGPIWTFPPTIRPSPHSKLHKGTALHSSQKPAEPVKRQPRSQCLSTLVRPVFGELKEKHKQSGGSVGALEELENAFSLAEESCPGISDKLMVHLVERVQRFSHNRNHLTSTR

Block 1 — host: human; matrix: microsomes or S9; concentration: 2 µM; time: 0.5 h
| Structure (SMILES) | remaining compound [%] |
| --- | --- |
| Cc1nn2cnnc2c(C)c1CCC(=O)Nc1nccs1 | 13.3 |
| O=C1Cc2cc(S(=O)(=O)N3CCN(C(c4ccccc4)c4ccccc4)CC3)cc3c2N1CCC3 | > 100 |
| COc1cccc(-c2cn3ncnc3n2Cc2cccc(Br)c2)c1 | 54.7 |
| CS(=O)(=O)N1CCN(CCCOc2ccc3c(c2)CN(Cc2cccnc2)C3=O)CC1 | 62 |
| CS(=O)(=O)c1ccc(-c2cc(F)c(OCC3CCNCC3)c(F)c2)cc1 | 28.5 |
| COc1ccc(S(=O)(=O)Nc2ncccn2)cc1 | 82.1 |
| Cc1cc(C(C)(C)C)cc(C)c1CS(=O)(=O)CCCO | 64.3 |
| O=C(CCc1ccc(C(F)(F)F)cc1)N1C2C=CCC1CC2 (centres unmarked) | 13.9 |
| CCc1nc(C)sc1Cn1cc(-c2cn(CC)nc2C)nn1 | 97 |

Block 2 — effect on: enzyme activity; mode: inhibitor; concentration: 0.5 µM; relative to: control
Target: Megakaryocyte-associated tyrosine-protein kinase (MATK, Homo sapiens, UniProt P42679)
Residues (P42679 1-507): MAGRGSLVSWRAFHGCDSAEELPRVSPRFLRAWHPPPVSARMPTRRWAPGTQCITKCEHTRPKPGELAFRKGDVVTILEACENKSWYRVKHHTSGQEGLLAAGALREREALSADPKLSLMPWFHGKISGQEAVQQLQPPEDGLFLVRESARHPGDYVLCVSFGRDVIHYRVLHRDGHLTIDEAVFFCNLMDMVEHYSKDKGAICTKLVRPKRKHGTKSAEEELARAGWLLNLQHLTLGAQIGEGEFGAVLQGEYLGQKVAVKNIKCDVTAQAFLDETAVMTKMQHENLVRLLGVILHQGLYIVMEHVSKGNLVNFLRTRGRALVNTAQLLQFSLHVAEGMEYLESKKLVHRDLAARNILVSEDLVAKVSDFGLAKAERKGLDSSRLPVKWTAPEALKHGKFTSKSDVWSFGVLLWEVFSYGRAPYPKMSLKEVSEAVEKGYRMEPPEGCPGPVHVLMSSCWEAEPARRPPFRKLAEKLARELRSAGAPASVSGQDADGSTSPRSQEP
| SMILES | remaining activity [%] |
| --- | --- |
| Nc1ncnc2n[nH]c(Nc3ccc(F)cc3)c12 | 95.6 |
| Cn1c2ccccc2c2c3c(c4c5ccccc5n(CCC#N)c4c21)CNC3=O | 100 |
| COc1ccc(C(=O)Nc2sc3c(c2C(N)=O)CCCC3)cc1OC | 92.7 |
| COc1cc2ncnc(Nc3ccc(Oc4ccccc4)cc3)c2cc1OC | 94.3 |
| COc1cc2nccc(Oc3ccc(NC(=S)NC(=O)c4ccccc4C)cc3)c2cc1OC | 93 |
| OCC(O)CCON=C1C(c2c(O)[nH]c3ccccc23)=Nc2ccccc21 (centres unmarked) | 101 |
| CCOC(=O)c1c(C)[nH]c(/C=C2\C(=O)Nc3ccccc32)c1C | 101 |
| CN(C)c1ccc(C=C2C(=O)Nc3ccccc32)cc1 | 95.3 |
| O=C(Nc1cccc(Nc2cc(Nc3cccc(C(F)(F)F)c3)ncn2)c1)C1CC1 | 96.1 |
| COc1ccc(CNC(=O)Nc2ncc([N+](=O)[O-])s2)cc1 | 96.6 |
| Cn1sc(=O)n(Cc2ccccc2)c1=O | 95.3 |
| CC(C)[C@H](CO)Nc1nc(Nc2cc(N)cc(Cl)c2)c2ncn(C(C)C)c2n1 | 111 |
| O=c1c2ccccc2[nH]c(=S)n1CCN1CCC(=C(c2ccc(F)cc2)c2ccc(F)cc2)CC1 | 93 |
| O=C1NC(=O)C(c2cn(CCCn3ccnc3)c3ccccc23)=C1Nc1ccccc1 | 89.8 |
| COc1ccc(OC)c2c(=S)c3ccccc3[nH]c12 | 89.5 |

Block 3 — effect on: cell-free assay; technique: competition with immobilised ligand; concentration: 1 µM
Structure (SMILES): CO[C@@H](C)c1c(Nc2ccc([C@@H](N(C)C(=O)C3CCS(=O)(=O)CC3)C(F)(F)F)cc2)cnc2cc(Cl)nn12
| target | remaining binding |
| --- | --- |
| EGFR (Homo sapiens, UniProt P00533, del752-759) | 93% |
| Tyrosine-protein kinase ABL1, phosphorylated (ABL1, Homo sapiens, UniProt P00519, T315I) | 78% |
| MAP2K4 (Homo sapiens, UniProt P45985) | 100% |
| STK25 (Homo sapiens, UniProt O00506) | 84% |
| FGFR2 (Homo sapiens, UniProt P21802) | 84% |
| TEK (Homo sapiens, UniProt Q02763) | 90% |

Block 4 — organism: Sarcocystis neurona; effect on: parasite growth; concentration: 10 µM; time: 96 h; notes: second screen; relative to: untreated
| SMILES | log2 fold change |
| --- | --- |
| Cc1cnc(C(=O)NCCc2ccc(S(=O)(=O)NC(=O)NC3CCCCC3)cc2)cn1 | 0.0657 |
| CN(C)CCC[C@@]1(c2ccc(F)cc2)OCc2cc(C#N)ccc21 | 0.35 |
| CCC(=O)O[C@]1(C(=O)CCl)[C@@H](C)C[C@H]2[C@@H]3CCC4=CC(=O)C=C[C@]4(C)[C@@]3(F)[C@@H](O)C[C@@]21C | 0.12 |
| CCn1cc(C(=O)O)c(=O)c2ccc(C)nc21 | 0.36 |
| CC(C(=O)O)c1ccc(CC2CCCC2=O)cc1 (centres unmarked) | 0.22 |

Some of these lines once more (block 2):
| SMILES | remaining activity [%] |
| --- | --- |
| CC(C)[C@H](CO)Nc1nc(Nc2cc(N)cc(Cl)c2)c2ncn(C(C)C)c2n1 | 111 |
| O=C(Nc1cccc(Nc2cc(Nc3cccc(C(F)(F)F)c3)ncn2)c1)C1CC1 | 96.1 |
| CCOC(=O)c1c(C)[nH]c(/C=C2\C(=O)Nc3ccccc32)c1C | 101 |
